# Measured values collected from several papers.
# Each line is one published result; not all experiments were run side by side. Values joined by “and” are separate records of one study, mostly repeats; a detail may differ.
SMILES,tested on,test,test system,conditions,scale,quantity,value
CN1C(=O)C(C2C3=C(CC(C)(C)CC3=O)Oc3ccc([N+](=O)[O-])cc32)C(=O)N(C)C1=O (stereo not drawn),3T3-L1,"cell growth or viability, MTT",,72 h,,IC20,118 µg/mL
CCN(CC)C(=O)[C@@H]1C=C2c3cccc4c3c(cn4C(=O)c3ccco3)C[C@H]2N(C)C1,,magnetometer,"C57BL/6J mouse, male","intraperitoneal, 0.25 mg/kg, 30 min session",,head-twitch response count,32.6
COc1ccccc1-c1n[nH]c2nc(N[C@H]3CC[C@H](NS(=O)(=O)CC(C)C)CC3)ncc12,,"bead binding, competition bead pull-down, item: LMJF.36.0180",Leishmania donovani extract,10 µM,relative to: vehicle,relative abundance,0.87
CC(C)(C)C(=O)OCOP(=O)(OCOC(=O)C(C)(C)C)C1CCCN(O)C1=O (stereo not drawn),SR,,,,,log GI50,-6.36 log M
CCCCCCCCCCCCNC=C1N=C(c2ccc[nH]2)C=C1OC.Cl,Candidozyma auris,broth microdilution,CDC AR Bank #0381,24 h,,MIC,2 µg/mL
COc1ccccc1-c1n[nH]c2nc(NC3CCN(C(=O)Cc4ccc(F)cc4F)CC3)ncc12,,"bead binding, competition bead pull-down, item: LINJ.19.1560",Leishmania donovani axenic amastigote extract,10 µM,relative to: vehicle,relative abundance,1.18
Cc1cc(C(=O)Nc2nc3cccc(C)c3n2[C@H]2CCCCN(C(=O)/C=C/CN(C)C)C2)ccn1,Trypanosoma brucei brucei,,2T1 wild type,150 x EC50,,survival,-0.057% and -0.021% and -0.012% and -0.056%
Cc1ccc2c(n1)c(-c1cccc(S(C)(=O)=O)c1)c(C)n2C/C(F)=C/CN,NMDA glutamate receptor (rat),"binding, radioligand binding",rat tissue,"10 µM, Polyamine",,inhibition,-9%
CN1C(=O)C(C2C3=C(CC(C)(C)CC3=O)Oc3ccc(Cl)cc32)C(=O)N(C)C1=O (stereo not drawn),3T3-L1,"cell growth or viability, MTT",,72 h,,IC20,102 µg/mL
Nc1ncc(-c2cc(-c3cnn(CC(F)(F)F)c3)ncc2F)nc1C(=O)NC1CNCC(F)C1 (stereo not drawn),ABL1(Q252H)-nonphosphorylated,KINOMEscan competition binding,,1 µM,relative to: DMSO control,remaining binding,94%
CCCC[C@@H]1NC(=O)[C@H](Cc2ccc(O)cc2)NC(=O)[C@@H]2CCCN2C(=O)[C@H](CC(=O)O)NC(=O)[C@H](C)NC(=O)[C@H](Cc2ccccc2)NC(=O)[C@@H]2CSCCC(=O)N3CN(CN(C3)C(=O)CCSC[C@@H](C(=O)N[C@@H](C)C(N)=O)NC1=O)C(=O)CCSC[C@H](NC(C)=O)C(=O)N[C@@H](CC(C)(C)C)C(=O)N1CCC[C@H]1C(=O)N[C@@H](CCC(=O)O)C(=O)N[C@H](CCCCNC(=O)CCc1cn(CCOCCOCCOCCN(CCOCCOCCOCCC(=O)N[C@H]3CSCCC(=O)N4CN5CN(C4)C(=O)CCSC[C@H](NC(=O)[C@@H](CC(=O)O)NC(=O)[C@H](Cc4cccc6ccccc46)NC(=O)[C@@H]4CCCN4C3=O)C(=O)N[C@@H](CCSC)C(=O)N[C@@H](CCCCNC(=N)N)C(=O)N[C@@H](CC(=O)O)C(=O)N[C@@H](Cc3c[nH]c4ccccc34)C(=O)N[C@@H](CO)C(=O)N[C@@H]([C@@H](C)O)C(=O)N3CCC[C@H]3C(=O)N3C[C@H](O)C[C@H]3C(=O)N[C@@H](Cc3c[nH]c4ccccc34)C(=O)N[C@H](C(N)=O)CSCCC5=O)CCOCCOCCOCCn3cc(CCC(=O)NCCCC[C@H]4NC(=O)[C@H](CCC(=O)O)NC(=O)[C@@H]5CCCN5C(=O)[C@H](CC(C)(C)C)NC(=O)[C@@H](NC(C)=O)CSCCC(=O)N5CN6CN(C5)C(=O)CCSC[C@H](NC(=O)[C@H](Cc5ccc(O)cc5)NC(=O)[C@@H]5CCCN5C4=O)C(=O)N[C@@H](Cc4ccccc4)C(=O)N[C@@H](C)C(=O)N[C@@H](CC(=O)O)C(=O)N4CCC[C@H]4C(=O)N[C@@H](Cc4ccc(O)cc4)C(=O)N[C@@H](CCCC)C(=O)N[C@H](C(=O)N[C@@H](C)C(N)=O)CSCCC6=O)nn3)nn1)C(=O)N1CCC[C@H]1C(=O)N[C@@H](Cc1ccc(O)cc1)C(=O)N2,,"NanoString, item: Cd200r1-mRNA","mouse bearing MC38-Nectin-4 tumour, circulating white blood cells","5 mg/kg, 24 h after dosing, unit not given",relative to: vehicle,mRNA level,1.69
Cc1ccc(C2=CC(C)(C)Oc3ccc(-c4ccc(-c5ccc(C(=O)O)cc5)[nH]4)cc32)cc1,,,"CD-1 mouse, male, testis","20 mg/kg/day, 2 weeks, one day after dosing end",,tubules with failed spermatid translocation,29.3% and 7.5%
CC(C)CC(C(=O)N1CC2(CC1C#N)C(=O)Nc1ccccc12)N(C)C(=O)c1cc2c(F)cc(F)c(F)c2[nH]1 (stereo not drawn),human coronavirus 229E,cytopathic effect,,concentration not given,,inhibition,0%
CCN(CC)C(=O)[C@@H]1C=C2c3cccc4c3c(cn4C(=O)c3cccs3)C[C@H]2N(C)C1,,magnetometer,"C57BL/6J mouse, male","intraperitoneal, 0.5 mg/kg, 30 min session",,head-twitch response count,18.2
CCCCCC1=C(NCC)C(=O)C(C/C=C(\C)CCC=C(C)C)=C(O)C1=O,,"RNA-seq GSEA, item: HALLMARK_MYC_TARGETS_V1","mouse, A53T α-synuclein lesioned, striatum",dose not given,"relative to: untreated A53T lesioned mice, direction not given",normalised enrichment score,-1.45
Cc1cc(Oc2nc(N3CC[C@@H](c4ccncc4)C3)ncc2F)[nH]n1,Mycobacterium tuberculosis,,"THP-1, H37Rv non-replicating","0.00949 µM, day 4 plus 1",,normalised growth,0.796% and -11.4%
O=C(C[Se]C(=O)c1ccco1)Nc1cccc(C(F)(F)F)c1,"NCI60 prostate subpanel (PC-3, DU-145)","cell growth, inhibitor",,five-dose,,GI50,2.58 µM
CC[C@H](C)[C@H](NC(=O)[C@H](CCCNC(=N)N)NC(=O)[C@H](CO)NC(=O)[C@H](Cc1ccc(O)cc1)NC(=O)[C@@H](NC(=O)[C@@H](NC(=O)[C@H](C)NC(=O)CNC(=O)[C@H](CCCCN)NC(=O)[C@H](CCCCN)NC(=O)CCNC(=O)CCCCCNC(=O)[C@H](CCCNC(=N)N)NC(=O)CCCCCNC(=O)[C@H](CCCNC(=N)N)NC(=O)[C@H](CCCNC(=N)N)NC(=O)CCCCCNC(=O)[C@H](CCCNC(=N)N)NC(=O)[C@H](CCCNC(=N)N)NC(=O)CCCCCNC(=O)[C@H](CCCNC(=N)N)NC(=O)[C@H](CCCNC(=N)N)NC(=O)CCCCCNC(=O)[C@@H](N)CCCNC(=N)N)C(C)C)[C@@H](C)O)C(=O)N[C@@H](CO)C(=O)NCC(=O)N[C@@H](CCC(N)=O)C(=O)N[C@@H](Cc1ccc(O)cc1)C(=O)N[C@@H](CCCCN)C(=O)O,,broth microdilution,"ATCC 33591 resistant strain, Mueller-Hinton broth",,,MIC,24 µM
COc1ccccc1-c1ccncc1C(=O)Nc1nnc(OCc2ccc(Cl)cc2)s1,DLD-1 BRCA2-/-,,,"1 µM, mean of 3 replicates",relative to: untreated,colony survival,38.9%
CC(O)CN.O=C(O)C(Cl)Cl,Solanum nigrum,herbicidal activity,,"15 mg/mL, 21 days, post-emergence greenhouse",,inhibition,64%
[2H]C([2H])([2H])C1(C([2H])([2H])[2H])NC(=O)N(c2ccc(F)c(C(F)(F)F)c2)C1=O,Schistosoma mansoni,,"juvenile stage, infected mice","oral, single dose",,ED50,77 mg/kg

# Repeated from above:
SMILES,tested on,test,test system,conditions,scale,quantity,value
CC(O)CN.O=C(O)C(Cl)Cl,Solanum nigrum,herbicidal activity,,"15 mg/mL, 21 days, post-emergence greenhouse",,inhibition,64%
[2H]C([2H])([2H])C1(C([2H])([2H])[2H])NC(=O)N(c2ccc(F)c(C(F)(F)F)c2)C1=O,Schistosoma mansoni,,"juvenile stage, infected mice","oral, single dose",,ED50,77 mg/kg
